# Measured values of several laboratories.
# Numbered parts are unrelated; each lists some results of a single study.

# Study 1 — technique: RNA Bind-n-Seq; molecule type: RNA; matrix: in vitro; concentration: not given; reference: input RNA pool; reading: higher = stronger binding
# Target: RING finger protein unkempt homolog, zinc fingers 1-6, GST-SBP tag (UNK, Homo sapiens, UniProt Q9C0B0, residues 30-357)
# Notes: RNA with constant flanks, human and mouse sites, ends assumed
# Constant ends, left off below: GGGAGUUCUACAGUCCGACGAUC … CAACAGAGGAUUGAGCAUCA
# Residues (chain): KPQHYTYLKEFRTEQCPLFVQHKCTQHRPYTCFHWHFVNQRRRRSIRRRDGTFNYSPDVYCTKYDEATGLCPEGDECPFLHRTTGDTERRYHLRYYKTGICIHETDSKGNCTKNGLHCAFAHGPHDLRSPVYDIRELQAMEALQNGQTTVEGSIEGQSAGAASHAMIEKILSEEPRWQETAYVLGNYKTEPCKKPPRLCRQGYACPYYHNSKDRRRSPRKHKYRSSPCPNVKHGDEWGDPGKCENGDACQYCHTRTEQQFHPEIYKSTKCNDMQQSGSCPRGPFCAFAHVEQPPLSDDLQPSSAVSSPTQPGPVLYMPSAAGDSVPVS
Sequence,bound/input enrichment
UCAUCGACCACCAUGACAACACCUACACAGUCAAGUACACGCCUGUCCAGCAGGGUCCAGUAGGCGUCAAUGUCACUUAUGGAGGGGAUCCCAUCCCUAAGAGCCCUUUCUCAGUGGCAG,0.186 ratio
AUUUGUGAAGUAAUUAAUGAAGCAGUAUGGAAGCAUAAUAUAAUUUAUGUUUCAAGUGCUGGAAAUAAUGGUCCAUGCCUGUCUACAGUUGGUUGUCCAGGUGGAACUACAUCAAGUGUG,0.172 ratio
UGCUCCUUUCUUCACCCAGAACCUGUUGUGGGGAGUAAGAUGCAUAAGAUGCCUGACCUAUUUAUCAUUGGCAGCGGUGAGGCCAUGUUGCAGCUCAUCCCUCCCUUCCAGUGCCGAAGA,0.179 ratio
GGCAGGUAUUCAAUACACAAUUCAGGCAUUAGUUUCUCAGUUAAAAAACAAGGUGAGACAGUAUCUGAUGUCAGAACACUGCCCAAUGCCACAACCGUGGACAACAUUCGCUCCAUCUUU,0.0664 ratio
UAUGGUUUUGAGAAGCCCUCUGCCAUCCAGCAGCGAGCUAUUCUUCCUUGUAUCAAGGGUUAUGAUGUGAUUGCUCAAGCCCAGUCUGGGACUGGGAAAACAGCUACAUUUGCCAUAUCA,0.125 ratio
GAGUUAGGAUCUGAAGGAAAGGUAGAAGAAGCCCAGGGAAUGAUGAAAUUGGUUGAACAGUUAAAGGAAGAGAGAGAAUUACUAAGAUCUACAACCUCGACUAUAGAAAGUUUUGCUGCC,40.4 ratio
UUAAGACUCACAUCAGAUUGGGCGAUGAUGCUCAAGAAACGAAAGUUUUGCUGGAAAAGCAUAGAAAAUUUGUUGAUGUUGCACAGAGCACUUAUGACUAUGGCAGGCAGUUGCUACAGG,0.438 ratio
CUGCAUUUUGUCCACAUGAGAGGAUUGCCUUUCCAAGCCAAUGCCCAAGACAUUAUAAAUUUCUUUGCUCCCCUGAAGCCUGUGAGAAUCACCAUGGAAUACAGCUCCAGUGGGAAGGCC,0.299 ratio
CGGACCACAGAGUUCAAACCUUCUGCCCAAAGAAAUGAGCCGUACAAGUUGCUCACACACAAAAUCCCAUGGCACAGUCACUUUGGUGGUUUCCUGGCAACCAUCCGUACAGUUUUGGGA,0.0998 ratio
GCCCCCAGAAGACCCAUAGAAAUGAGAGGCCUGAGGUCUACAAGUCGCUGCUAGAAAUAUUUUAGCCUCUCCAAAGCCCAGAAUGCAGCCCCGACCCAAGUUUGUAAGGGUUCUGGGUGC,1.24 ratio
CCUCCACCUAAUGCAGAUCCCAAUAUGAAGUUAUUUACAAUUCGGGGCACUCCACAGCAAAUAGACUAUGCUCGACAACUCAUAGAAGAGAAGAUUGGGGGCCCAGUAAAUCCUUUAGGG,1.49 ratio

# Study 2 — technique: protein-binding microarray; molecule type: double-stranded DNA, one strand shown; matrix: in vitro; concentration: 2540 nM top; notes: 60-bp whole probe; together with: salmon DNA 0.4 mg/ml; reference: random background probes; reading: higher = stronger binding; constant ends, left off below: GCCTAGCAC … GTCTTGATTCGCTTGACGCTGCTG
# Target: Interferon regulatory factor 3, full length, phosphomimetic (IRF3, Homo sapiens, UniProt Q14653, residues 1-427, S386D/S396D/S398D/S402D/T404D/S405D)
# Target sequence (chain): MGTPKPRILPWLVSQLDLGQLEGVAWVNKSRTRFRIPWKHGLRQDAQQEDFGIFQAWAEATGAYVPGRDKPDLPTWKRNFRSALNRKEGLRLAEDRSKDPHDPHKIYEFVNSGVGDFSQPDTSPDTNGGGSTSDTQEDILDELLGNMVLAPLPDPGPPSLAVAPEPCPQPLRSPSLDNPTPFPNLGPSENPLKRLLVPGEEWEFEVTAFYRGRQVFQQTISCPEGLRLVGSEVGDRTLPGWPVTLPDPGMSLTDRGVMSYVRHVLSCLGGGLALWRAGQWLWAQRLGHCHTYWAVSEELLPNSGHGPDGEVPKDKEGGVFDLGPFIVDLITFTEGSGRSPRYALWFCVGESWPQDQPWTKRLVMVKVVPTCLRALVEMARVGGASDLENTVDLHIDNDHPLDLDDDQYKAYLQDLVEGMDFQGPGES
Sequence,fitted relative affinity
CATTGCCTATTTTTCCCCTGGTGCTAG,1.14 z-score
CTAGGTCTCGGTTTCGGTTAGTGCTAG,5.06 z-score
GACGGTAGCCTTCTCCTGACGTGCTAG,2.02 z-score
TCCACTTTCTTTTGCTTGTTGTGCTAG,1.85 z-score
TCTAACTTCCCAATGGTCTTGTGCTAG,0.5 z-score
TGTGTTTTCACTTTTCCTACGTGCTAG,3.34 z-score
TTAGATCTCAGTCGCGATTAGTGCTAG,-0.105 z-score
TCAGTTTCTGATATGGTACTGTGCTAG,4.63 z-score
GACGGATTCGGACTGGGGACGTGCTAG,0.698 z-score
TCACACCAGAGGGCGCTGTGGTGCTAG,-0.793 z-score
GACGATATCAGACTGGAAACGTGCTAG,0.513 z-score
GTGTATATGACAATGATGTTGTGCTAG,-0.21 z-score
TTAGGTATCGACTTTGGGTTAGTGCTA,0.53 z-score
ATAGGTATCGGGTTTCGGTTAGTGCTA,4.27 z-score
GAAGGTTTCGGTTTCGGGACGTGCTAG,10.6 z-score
GACTATATCAGTCTCGAGACGTGCTAG,0.987 z-score
TCAAGTTTCTCAACCACACTGTGCTAG,1.62 z-score
TTAGGTATCCTACTGCTTCAGTGCTAG,2.49 z-score
TTAGGTATCGGTTTCAGTTAGTGCTAG,6.61 z-score
TTGTGTCTGGGCTTTTTCCCCGTGCTA,-0.767 z-score
TCACGTAAGCAAAAATGACTGTGCTAG,-0.35 z-score
GACGGTTTCGGTATAGGGACGTGCTAG,7.23 z-score
GACGGTTTCCTTGTCCTGACGTGCTAG,5.39 z-score
TTAGGTCGCGGTATCGGTTAGTGCTAG,1.74 z-score
TCATTTTACTTTCTGAAACTGTGCTAG,4.49 z-score

# Study 3 — technique: universal PBM; molecule type: double-stranded DNA, one strand shown; matrix: in vitro; concentration: 600 nM; reading: higher = stronger binding
# Target: Sal-like protein 4, full length isoform A (SALL4, Homo sapiens, UniProt Q9UJQ4, residues 1-1053)
# UniProt Q9UJQ4, sequence (whole entry, looked up): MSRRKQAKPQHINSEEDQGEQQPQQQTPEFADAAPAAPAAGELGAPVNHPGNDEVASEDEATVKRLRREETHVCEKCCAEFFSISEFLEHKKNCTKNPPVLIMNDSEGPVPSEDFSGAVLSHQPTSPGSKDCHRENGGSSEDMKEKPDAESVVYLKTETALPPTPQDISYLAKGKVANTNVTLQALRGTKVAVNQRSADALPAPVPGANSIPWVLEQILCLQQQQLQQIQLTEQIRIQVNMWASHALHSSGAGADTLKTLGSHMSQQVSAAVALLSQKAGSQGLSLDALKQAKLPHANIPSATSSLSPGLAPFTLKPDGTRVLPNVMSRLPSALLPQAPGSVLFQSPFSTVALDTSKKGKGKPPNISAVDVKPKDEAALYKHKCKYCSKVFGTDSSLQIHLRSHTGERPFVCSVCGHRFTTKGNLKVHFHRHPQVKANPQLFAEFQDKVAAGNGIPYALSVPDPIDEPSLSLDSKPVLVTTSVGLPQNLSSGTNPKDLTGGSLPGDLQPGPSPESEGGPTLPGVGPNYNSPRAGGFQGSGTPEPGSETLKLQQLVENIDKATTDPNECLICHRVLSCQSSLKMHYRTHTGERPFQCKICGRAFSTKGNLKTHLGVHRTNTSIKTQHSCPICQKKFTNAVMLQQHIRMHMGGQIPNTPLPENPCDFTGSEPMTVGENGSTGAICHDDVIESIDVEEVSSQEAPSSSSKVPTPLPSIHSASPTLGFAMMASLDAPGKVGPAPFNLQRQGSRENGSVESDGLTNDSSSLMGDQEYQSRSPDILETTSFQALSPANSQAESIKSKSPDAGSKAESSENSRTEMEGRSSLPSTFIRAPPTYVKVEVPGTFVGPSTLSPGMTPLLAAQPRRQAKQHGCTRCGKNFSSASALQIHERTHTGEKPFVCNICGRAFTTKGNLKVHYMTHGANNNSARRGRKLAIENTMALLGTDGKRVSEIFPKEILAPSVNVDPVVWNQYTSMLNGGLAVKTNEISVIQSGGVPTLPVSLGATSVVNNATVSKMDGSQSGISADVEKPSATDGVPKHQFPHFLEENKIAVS
# Notes: 8-mer, flanks averaged, mean of replicates
Sequence,E-score
AGTTGGAC,0.016
ATACGCGG,-0.0909
CACACCCA,-0.106
AGCCGCAC,-0.257
CGGCGACG,-0.37
CGGCCCGC,-0.375
AGACTGGA,-0.108
GAGCTGGC,-0.281
GGAAGTTA,0.218
AGGGTTGG,-0.109
AACTAAGC,0.00128
GGTAAGAA,-0.113
CCCAAAAC,0.0869
AAACACCG,0.0255
CGATTCAA,-0.00343
AACTCAAT,0.179
TCCAGGCA,0.0435
CCCACGCC,-0.27
AGACCCCT,-0.229
ACGCCCAG,-0.278
ACCAGCTC,-0.159
TCTTCGAA,-0.025

# Study 4 — technique: aptamer microarray, sandwich; molecule type: DNA with 2'F-ANA; matrix: in vitro; concentration: 200 nM; together with: Cy3 exosite-II aptamer, 400 nM; reading: higher = stronger binding; sequence: GGTTGGTGTGGTTGG
# Target: Prothrombin, mature alpha-thrombin (F2, Homo sapiens, UniProt P00734)
# Notes: whole 15-mer aptamer, many near background
Modification,mean fluorescence intensity
2'F-ANA at 3 4 9 13 15,476 a.u.
2'F-ANA at 4 6 7 8 11,295 a.u.
2'F-ANA at 4 8 10 13 14,63.7 a.u.
2'F-ANA at 1 9 12 13 14 15,69.3 a.u.
2'F-ANA at 1 3 5 11 14 15,53.8 a.u.
2'F-ANA at 6 7 9 10 13,141 a.u.
2'F-ANA at 1 2 4 5 6 10 11 13,50.7 a.u.
2'F-ANA at 2 4 5 6 7 8 9 13 14 15,49.4 a.u.
2'F-ANA at 1 4 6 8 13 15,87.8 a.u.
2'F-ANA at 1 3 7 11 13,257 a.u.
2'F-ANA at 2 3 4 11,575 a.u.
2'F-ANA at 1 2 3 10 12 13 14,75.5 a.u.
2'F-ANA at 5 6 8 9 11 13,188 a.u.
2'F-ANA at 1 2 3 6 9 11 13 15,122 a.u.
2'F-ANA at 3 4 6 7 8 12 13 14 15,308 a.u.
2'F-ANA at 1 2 4 6 7 9 10 11 13,62.7 a.u.
2'F-ANA at 1 5 6 9 11 13 14 15,58 a.u.
2'F-ANA at 2 3 4 5 7 8 9 10 11 13,51.9 a.u.
2'F-ANA at 1 2 3 4 5 6 7 10 14 15,47.5 a.u.
2'F-ANA at 3 4 8 9 11 13 14 15,279 a.u.
2'F-ANA at 1 2 5 6 10 12 15,53.9 a.u.
2'F-ANA at 3 5 7 8 9 12 13 14 15,65 a.u.
2'F-ANA at 2 4 5 6 8 9 11 14 15,50.3 a.u.
2'F-ANA at 1 3 5 8 9 11 12,183 a.u.
2'F-ANA at 2 4 7 8 9 11 12 13 14,107 a.u.
